Results collected from several papers.
± marks the error that the study gave.
Cell line: Vero

Compound	test	conditions	measurement	result
Cc1nc(=S)[nH]c(C)c1/N=N/c1nnc(S)[nH]1	cell viability, MTT	2.5 µg/mL	inhibition	20.6 ± 0.549%
C[OH+][Cu-2]12[O]C(c3cn(-c4ccccc4)nc3-c3ccc(Br)cc3)=N[N+]1=C(C)c1c(cc(C)oc1=O)[O]2 (stereo not drawn)	cell growth or viability, MTT	48 h	IC50	49.8 µM
OC(Cn1cncn1)(Cn1cc(-[c-]2cccc2)nn1)c1ccc(F)cc1F.[Cl-].[Co+3].c1cc[cH-]c1 (racemic)	cell growth or viability, MTT	24 h	IC50	110 µM
C[OH+][Cu-2]12[O]C(c3cn(-c4ccccc4)nc3-c3ccc(F)cc3)=N[N+]1=C(C)c1c(cc(C)oc1=O)[O]2 (stereo not drawn)	cell growth or viability, MTT	48 h	IC50	42.2 µM
CCC1NC2CC3(C(=O)N(OC)c4ccccc43)C3OCC2C1C3O (stereo not drawn)	CCK-8	up to 100 µM, 24 h	viability	no effect
O=C(NCC(O)(Cn1cncn1)c1ccc(F)cc1F)[c-]1cccc1.[Cl-].[Co+3].c1cc[cH-]c1 (racemic)	cell growth or viability, MTT	24 h	IC50	476 µM
Cc1[nH]c(=S)[nH]c(=O)c1/N=N/c1nnc(S)[nH]1	cell viability, MTT	0.625 µg/mL	inhibition	9.993 ± 0.008%
C[OH+][Cu-2]12[O]C(c3cn(-c4ccccc4)nc3-c3ccc(C)cc3)=N[N+]1=C(C)c1c(cc(C)oc1=O)[O]2 (stereo not drawn)	cell growth or viability, MTT	48 h	IC50	53.9 µM
CCC1NC2CC3(C(=O)N(OC)c4cc(OC)ccc43)C3OCC2C1C3O (stereo not drawn)	CCK-8	up to 100 µM, 24 h	viability	no effect

Some of these lines once more:
Compound	test	conditions	measurement	result
C[OH+][Cu-2]12[O]C(c3cn(-c4ccccc4)nc3-c3ccc(Br)cc3)=N[N+]1=C(C)c1c(cc(C)oc1=O)[O]2 (stereo not drawn)	cell growth or viability, MTT	48 h	IC50	49.8 µM
